{"data": "Experimental data collected from several papers", "organism": "Salmonella enterica", "note": "± marks the error that the study gave."}
{"SMILES": "CCCCCCSCC1OC(OC2C(N)CC(N)C(OC3OC(CN)C(O)CC3N)C2O)C(O)C(N)C1O (centres unmarked)", "test system": "ATCC 14028", "measurement": "MIC", "result": "> 150 µg/mL"}
{"SMILES": "CNC1=C([N+](=O)[O-])C2(C(=O)Nc3ccc([N+](=O)[O-])cc32)C2=C(CCCC2=O)O1 (centres unmarked)", "assay": "microbial growth", "test system": "TYPHIMURIUM", "conditions": "250 µg/mL, 24 h", "measurement": "inhibition", "result": "62.4%"}
{"SMILES": "CCCCCCCCCCCC[S+]([O-])CC1OC(OC2C(N)CC(N)C(OC3OC(CN)C(O)CC3N)C2O)C(O)C(N)C1O (mixture of isomers)", "test system": "ATCC 14028", "measurement": "MIC", "result": "> 150 µg/mL"}
{"SMILES": "CCOC(=O)C1=C(C)NC2=C(C(=O)CC(C)(C)C2)C1c1ccc(OCC(=O)NN=Cc2cc(Br)c(O)c(Br)c2)cc1OCC(=O)NN=Cc1cc(Br)c(O)c(Br)c1 (centres unmarked)", "test system": "ATCC 13311", "conditions": "concentration not given, 24 h, 37 °C", "measurement": "inhibition zone diameter", "result": "4.3 ± 0.2 mm"}
{"SMILES": "N#Cc1ccc2cccc(O)c2n1", "assay": "microbial growth, agar dilution", "test system": "ENTERITIDIS", "measurement": "MIC", "result": "> 1500 µM"}
{"SMILES": "CNC1=C([N+](=O)[O-])C2(C(=O)Nc3ccc(Cl)cc32)C2=C(O1)C(=O)c1ccccc1C2=O (centres unmarked)", "assay": "microbial growth", "test system": "TYPHIMURIUM", "conditions": "250 µg/mL, 24 h", "measurement": "inhibition", "result": "100%"}
{"SMILES": "Oc1c(Cl)cc(Cl)c2cccnc12", "assay": "microbial growth, agar dilution", "test system": "ENTERITIDIS", "measurement": "MIC", "result": "37.4 µM"}
{"SMILES": "CCOC(=O)C1=C(C)NC2=C(C(=O)CC(C)(C)C2)C1c1ccc(OCC(=O)NN=Cc2cccc([N+](=O)[O-])c2)cc1OCC(=O)NN=Cc1cccc([N+](=O)[O-])c1 (centres unmarked)", "test system": "ATCC 13311", "conditions": "concentration not given, 24 h, 37 °C", "measurement": "inhibition zone diameter", "result": "3 ± 0.1 mm"}
{"note": "A few entries again:"}
{"SMILES": "CCOC(=O)C1=C(C)NC2=C(C(=O)CC(C)(C)C2)C1c1ccc(OCC(=O)NN=Cc2cccc([N+](=O)[O-])c2)cc1OCC(=O)NN=Cc1cccc([N+](=O)[O-])c1 (centres unmarked)", "test system": "ATCC 13311", "conditions": "concentration not given, 24 h, 37 °C", "measurement": "inhibition zone diameter", "result": "3 ± 0.1 mm"}
